Assay results of several laboratories.
Each line is one published result; not all experiments were run side by side. Several values in a cell are separate wells, animals, samples, runs or records. Numbers after ± are the reported error.

Compound	cell line	assay	setting	how to read	measurement	result
Oc1cc(O)cc(/C=C/c2ccc(O)c(O)c2)c1	HBL-1	–	1 µM, 120 h	–	viability	103%
O=C(O)CC[C@H](NC(=O)N[C@@H](CCCCNC(=O)CCCCCCC(=O)NCCCC[C@@H](NC(=O)[C@H](CCC(=O)O)NC(=O)[C@H](CCC(=O)O)NC(=O)CCC(=O)NCCCN1CC[S][Tc]2(=[O])[S]CC[N]2CC1)C(=O)O)C(=O)O)C(=O)O (some centres unmarked) [technetium-99m labelled]	LNCaP	–	25 nM, 1 h, 4 °C	–	internalized activity	0.2 ± 0.04 %AD/mg protein
CCOc1nc(-c2cccc(O)c2)cc(-c2cc3ccccc3nc2N2CCOCC2)c1C#N	NFS-60	MTT	–	relative to: WI-38 EC50 over NFS-60 IC50	selectivity ratio	0.447
COc1cc2c(NC3CCN(C4CCCCC4)CC3)nc(N3CCCN(C(C)C)CC3)nc2cc1OCCCN1CCCCC1	HBL-1	–	1 µM, 120 h	–	viability	124%
Cn1cc(-c2ccc(-c3cncc(Cl)c3N3CCC4(CCNC4=O)CC3)cc2)cn1	COLO 205	gene expression, microarray, refers to: SQLE mRNA	concentration not given, 6 h	relative to: untreated cells	log2 fold change	1.11
COc1cc2c(cc1-c1c(C)noc1C)ncc1[nH]c(=O)n([C@H](C)c3ccccn3)c12	HBL-1	–	0.5 µM, 120 h	–	viability	39.1%
Cc1cnc2ccc3c(c2n1)N1CCC(O)N=C1N3C (centres unmarked)	BALB/c 3T3	colony formation	1 µM	–	plating efficiency	43%
CCn1c(-c2nonc2N)nc2c(C#CC(C)(C)O)ncc(OC[C@H]3CCCNC3)c21	UACC-903	immunoblot	concentration not given, 1 h, with: TNF-α 5 min	–	IκB phosphorylation	no inhibition
O=c1cc(-c2cccc3c2Sc2ccccc2S3)oc(N2CCOCC2)c1	HeLa expressing Ub(G76V)-GFP	Ub(G76V)-GFP degradation, cycloheximide chase	12 µM	–	inhibition	11%
Cc1c(C)c2c(c(C)c1O)CCC(C)(COc1ccc(CC3SC(=O)NC3=O)cc1)O2 (centres unmarked)	HepG2	extracellular flux, refers to: oxygen consumption rate	6 h, distribution mode 2	–	point of departure	5.89 µM
Nc1nc(=S)c2[nH]cnc2[nH]1	HBL-1	–	1 µM, 120 h	–	viability	74.7%
CO[C@H]1[C@H](O[C@H]([C@H]2O[C@@H](n3ccc(=O)[nH]c3=O)[C@H](O)[C@@H]2O)[C@H](NCCCNC(=O)[C@@H](NC(=O)[C@@H](NC(=O)N[C@H](C(=O)O)C(C)C)[C@@H]2CCN=C(N)N2)[C@@H](OC(=O)CCCCCCCCCCCCN(O)C(=N)N)C(C)C)C(=O)O)O[C@H](CN)[C@H]1O	MDA-MB-231	annexin V/7-AAD flow cytometry	1.0 µM, 48 h	relative to: untreated	apoptotic cells	~1.5 fold
COc1cccc2c1C(=O)c1c(O)c3c(c(O)c1C2=O)C[C@@](O)(C(C)=O)C[C@@H]3O[C@H]1C[C@H](N)[C@H](O)[C@H](C)O1	BT-12	cell viability, MTT	10 µM, 72 h	–	inhibition	94.3%
CC(=O)Nc1cccc(-n2c(=O)n(C3CC3)c(=O)c3c(Nc4ccc(I)cc4F)n(C)c(=O)c(C)c32)c1	COLO 205	cell viability, resazurin	1.56 nM, 72 h	relative to: DMSO	fractional effect	0.85 and 0.793
CCn1cc(-c2cc(Cn3ccnc3)cc3c2CCN([C@H](c2cc(OC)ccn2)C2CC2)C3=O)c(C(F)(F)F)n1	ML1	cell growth, inhibitor	120 h	–	EC50	16.8 µM
Nc1ncnc2c1ncn2[C@@H]1C=C(CO)[C@@H](O)[C@H]1O	HBL-1	–	0.5 µM, 120 h	–	viability	68.8%
CC(C)C[C@@H](C=O)NC(=O)[C@H](CC(C)C)NC(=O)[C@H](CC(C)C)NC(=O)OCc1ccccc1	HeLa expressing Ub(G76V)-GFP	Ub(G76V)-GFP degradation, cycloheximide chase	0.156 µM	relative to: DMSO	remaining activity	58.5%
CCCOc1ccn2c(C(C)=O)cc(-c3ccccc3S(C)(=O)=O)c2c1	HBL-1	–	1 µM, 120 h	–	viability	88.4%
COCCn1c2c([n+](Cc3cnccn3)c1C)C(=O)c1ccccc1C2=O	BT-12	cell viability, MTT	10 µM, 72 h	–	inhibition	95.3%
COc1cc(Oc2ccnc3cc(OC)c(OC)cc23)ccc1NC(=O)NC(C)c1nccs1 (centres unmarked)	hiPSC cardiomyocytes	CellTiter-Glo	concentration not given, 24 h	relative to: vehicle	ATP level	97.7%
CC(=O)c1ccc(N2CCOCC2)cc1O	HeLa expressing Ub(G76V)-GFP	Ub(G76V)-GFP degradation, inhibitor, cycloheximide chase	12 µM	–	inhibition	-7%
O=C(O)CCCc1ccccc1	HBL-1	–	1 µM, 120 h	–	viability	103%
[Cl][64Cu][Cl]	BxPC-3	–	37 °C	–	membrane-bound fraction	6.2 ± 0.2%

Some of these lines once more:
Compound	cell line	assay	setting	how to read	measurement	result
CCn1c(-c2nonc2N)nc2c(C#CC(C)(C)O)ncc(OC[C@H]3CCCNC3)c21	UACC-903	immunoblot	concentration not given, 1 h, with: TNF-α 5 min	–	IκB phosphorylation	no inhibition
O=c1cc(-c2cccc3c2Sc2ccccc2S3)oc(N2CCOCC2)c1	HeLa expressing Ub(G76V)-GFP	Ub(G76V)-GFP degradation, cycloheximide chase	12 µM	–	inhibition	11%
Cc1c(C)c2c(c(C)c1O)CCC(C)(COc1ccc(CC3SC(=O)NC3=O)cc1)O2 (centres unmarked)	HepG2	extracellular flux, refers to: oxygen consumption rate	6 h, distribution mode 2	–	point of departure	5.89 µM
Nc1nc(=S)c2[nH]cnc2[nH]1	HBL-1	–	1 µM, 120 h	–	viability	74.7%
